Measured values from different studies.
Lines come from different studies, so protocols differ. Several values in a cell are separate wells, animals, samples, runs or records. Numbers after ± are the reported error.
CDK2 with cyclin A: Cyclin-dependent kinase 2, with cyclin A (CDK2, Homo sapiens, UniProt P24941)

Structure (SMILES) | tested on | test | test system | setting | scale | quantity | value
Cc1n[nH]c2ccc(-c3cc(OC[C@@H](N)Cc4ccccc4)cnc3-c3ccoc3)cc12 | orf19.4518 kinase Candida albicans | MIB/MS competition binding | Candida albicans cell lysate | 10 µM | reference: DMSO, lower = stronger binding | log2 fold change | -0.0364
CC(C)C[C@H](NC(=O)C[C@H](O)[C@H](CC(C)C)NC(=O)[C@H](Cc1c[nH]cn1)NC(=O)CNC(=O)[C@@H](NC(=O)[C@H](C)NC(=O)[C@H](Cc1c[nH]c2ccccc12)NC(=O)[C@H](CCC(N)=O)NC(=O)[C@@H](Cc1ccccc1)NC(=O)COCCOCCNC(=O)CCC(C(=O)O)N1CCN(CC(=O)O)CCN(CC(=O)O)CCN(CC(=O)O)CC1)C(C)C)C(N)=O (stereo partly drawn) [lutetium-177 labelled] |  |  | BALB/c nu/nu mice, muscle | intravenous, 750 pmol, 1 h, added: PA 300 µg |  | tissue uptake | 0.2 ± 0.2 %ID/g
CN1CCN(C(=O)CN(C)S(=O)(=O)c2ccc3ccccc3c2)CC1 | CDK2 with cyclin A |  |  |  |  | Kd | > 100 µM
CC(C)NCC(O)c1ccc(O)c(O)c1 (stereo not drawn) |  |  | ventricular cardiomyocytes, C57BL/6 mouse | dose not given, 0.06 s |  | sarcomere length | 1.72 µm
C=C[C@]1(C)C[C@@H](OC(=O)CSCCN(CC)CC)[C@]2(C)[C@H](C)CC[C@]3(CCC(=O)[C@H]32)[C@@H](C)[C@@H]1O | Mycoplasma gallisepticum |  | infected chickens, lung | intramuscular, 40 mg/kg | reference: 0 h | mycoplasma load reduction | 3.09 log10 CFU/mL
CNCc1ccc(-c2[nH]c3cc(F)cc4c3c2CCNC4=O)cc1 |  |  | patients | oral, 480 mg twice daily, all grades |  | cough incidence | 33.3%
N#Cc1ccc2c(-c3ccncc3)c(-c3ccc(F)cc3)nn2c1 | orf19.6492 kinase Candida albicans | MIB/MS competition binding | Candida albicans cell lysate | 100 nM | reference: DMSO, lower = stronger binding | log2 fold change | -0.0952
Oc1ccccc1-c1n[nH]cc1-c1ccnc2ccccc12 | orf19.3456 Candida albicans | kinase binding, MIB/MS competition | Candida albicans lysate | 10 µM | reference: DMSO | log2 fold change | 0.14
NCCCOc1cc(NC(=O)c2cc(OCc3c[nH]nn3)cc(C(=O)Nc3cc(OCCCN)c4ccccc4n3)n2)nc2ccccc12 | Bcl2 G-quadruplex DNA | FRET melting |  | 1 µM, pH 7.4, added: 60 mM potassium |  | ΔTm | 14.3 ± 0.8 K
CC(C)n1ncc2c(C(=O)NCC3(C)CNC3)cc(C3CC3)nc21 | Enterovirus D68 | cytopathic effect | RD, US/IL/14-18952 | 500 nM |  | cell protection | 96.9% and 91.5% and 93.2%
O=C(/C=C/C=C/C=C/C1CCCCC1)NC1=C[C@@](O)(/C=C/C=C/C=C/C(=O)NC2=C(O)CCC2=O)[C@@H]2O[C@@H]2C1=O | NCI-H2052 | cell growth, CellTiter-Glo |  | 78 h |  | GI50 | 15.3 µM
CCn1cc(-c2cc(Cn3ccnc3)cc3c2CCN([C@H](c2cc(OC)ccn2)C2CC2)C3=O)c(C(F)(F)F)n1 | AGS | cell growth, inhibitor |  | 120 h |  | EC50 | 23.9 µM
Cn1cc(-c2ccc(-c3cncc(Cl)c3N3CCC4(CCNC4=O)CC3)cc2)cn1 | COLO 205 | gene expression, microarray, measured: PLOD1 mRNA |  | concentration not given, 2 h | reference: untreated cells | log2 fold change | 1.23
O=C(Cn1cnc([N+](=O)[O-])n1)Nc1ccc(N2CCOCC2)c(Cl)c1 | CDK2 with cyclin A |  |  |  |  | Kd | > 100 µM
CC(=O)NC[C@H]1CN(c2ccc(N3CCOCC3)c(F)c2)C(=O)O1 | Enterococcus faecium |  | -9 vancomycin-intermediate, mice, systemic infection | intravenous, 2 and 8 h post-infection, survival over 7 days |  | ED50 | 20.1 mg/kg
c1csc(CNc2cc[nH]n2)c1 | human peripheral blood lymphocytes (female) |  |  | 2000 µg/mL, 4 h, repeat, added: without S9 |  | cells with numerical aberrations | 0%
NC(=O)c1cnc2[nH]ccc2c1N[C@@H]1[C@@H]2CC3C[C@H]1C[C@@](O)(C3)C2 |  | total naive T cells, flow cytometry | Caucasian humans, peripheral blood | 20 mg single dose | reference: baseline | percent change | -1.65%
c1ccc(-c2n[nH]cc2-c2ccnc3ccccc23)nc1 | orf19.4518 kinase Candida albicans | MIB/MS competition binding | Candida albicans cell lysate | 1 µM | reference: DMSO, lower = stronger binding | log2 fold change | 1.18
CC(C)[C@H](NC(=O)[C@H](Cc1ccc(O)cc1)NC(=O)[C@H](Cc1ccc(O)cc1)NC(=O)[C@@H]1CCCN1C(=O)[C@H](CCC(=O)O)NC(=O)[C@H](CCC(=O)O)NC(=O)[C@H](Cc1c[nH]c2ccccc12)NC(=O)[C@@H]1CCCN1C(=O)[C@@H](NC(=O)[C@H](CCC(N)=O)NC(=O)c1ccc2c(c1)C(=O)OC21c2ccc(O)cc2Oc2cc(O)ccc21)C(C)C)C(=O)N[C@H](C(=O)N[C@@H](CCCCN)C(=O)N[C@@H](CCCCN)C(=O)N[C@@H](CO)C(=O)N[C@@H](CO)C(=O)NCC(=O)NCC(N)=O)C(C)C |  |  | human, plasma | intravenous infusion, 189.6 mg, 0.5 h |  | plasma concentration | 16600 ng/mL
COc1cc(C(=O)NS(=O)(=O)c2ccccc2C)ccc1Cc1cn(C)c2ccc(NC(=O)OC3CCCC3)cc12 | native VRAC | ion current, inhibitor, whole-cell patch clamp | wild-type HCT cells | 3 µM, pH 6.0, extracellular pH |  | inhibition | 31.3% and 48.6% and 20.3% and 9.73% and 38%
O=C(N1CCc2ccccc21)n1ccnn1 | Arabidopsis thaliana |  | atd14-1 mutant, seedlings | 5 µM, continuous red light, added: 1 µM (±)-GR24 |  | hypocotyl length | 3.24 mm and 7.64 mm and 2.52 mm and 2.65 mm and 2.7 mm and 2.46 mm

Repeated from above:
Structure (SMILES) | tested on | test | test system | setting | scale | quantity | value
CCn1cc(-c2cc(Cn3ccnc3)cc3c2CCN([C@H](c2cc(OC)ccn2)C2CC2)C3=O)c(C(F)(F)F)n1 | AGS | cell growth, inhibitor |  | 120 h |  | EC50 | 23.9 µM
